Experimental data from different studies.
Protocols differ between the studies behind these lines.
Target: Histone deacetylase 8 (HDAC8, Homo sapiens, UniProt Q9BY41)
Observed: enzyme activity
Mode: inhibitor
Sequence (Q9BY41 1-377, as in one of the studies): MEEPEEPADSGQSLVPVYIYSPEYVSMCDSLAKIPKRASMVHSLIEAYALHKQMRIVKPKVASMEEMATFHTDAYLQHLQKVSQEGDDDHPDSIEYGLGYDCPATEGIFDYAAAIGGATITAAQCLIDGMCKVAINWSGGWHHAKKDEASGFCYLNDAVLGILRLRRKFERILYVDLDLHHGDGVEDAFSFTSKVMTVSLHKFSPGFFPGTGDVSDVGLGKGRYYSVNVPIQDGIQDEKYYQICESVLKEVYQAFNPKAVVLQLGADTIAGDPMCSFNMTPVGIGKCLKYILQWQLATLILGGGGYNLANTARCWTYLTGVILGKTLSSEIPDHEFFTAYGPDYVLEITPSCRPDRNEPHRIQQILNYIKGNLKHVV

| SMILES | technique | IC50 |
| --- | --- | --- |
| Cc1c(COc2cc(OCc3cccc(C#N)c3)c(CNC(CO)(CO)CO)cc2Cl)cccc1-c1cccc(OCCCCCC(=O)NO)c1 |  | > 1000 nM |
| Cc1nc2c(F)cc(-c3nc(Nc4ccc(CNC(=O)CCCCCCC(=O)NO)cc4)ncc3F)cc2n1C(C)C |  | > 10000 nM |
| Cc1c(COc2cc(OCc3cccc(C#N)c3)c(CNC(C)(CO)CO)cc2Cl)cccc1-c1cccc(OCCCCCC(=O)NO)c1 |  | > 1000 nM |
| Cc1cc(C(C)(C)C)ccc1OS(=O)(=O)Oc1cccc(/C=C/C(=O)NO)c1 | fluorescence | 6610 nM |
| Cc1c(COc2cc(OCc3cccc(C#N)c3)c(CN3CCCC[C@@H]3C(=O)O)cc2Cl)cccc1-c1cccc(OCCCCCCC(=O)NO)c1 |  | > 1000 nM |
| CC[C@H](C)[C@@H]1NC(=O)[C@H](Cc2ccccc2C(F)(F)F)NC(=O)CCSCc2cccc(n2)CSCCCNC(=O)[C@H](CCCCCC(=O)NO)NC1=O | fluorescence | 150 nM |
| Cc1c(COc2cc(OCc3cccc(C#N)c3)c(CNC(CO)CO)cc2Cl)cccc1-c1cccc(OCCCCCCC(=O)NO)c1 |  | > 1000 nM |
| O=C(NO)c1cc(F)cc(OS(=O)(=O)Oc2ccc(Br)cc2)c1 | fluorescence | 1210 nM |
| Cc1c(COc2cc(OCc3cccc(C#N)c3)c(CN3CCCC[C@H]3C(=O)O)cc2Cl)cccc1-c1cccc(OCCCCCC(=O)NO)c1 |  | > 1000 nM |
| O=C(NO)c1cc(F)cc(OS(=O)(=O)Oc2ccc3ccccc3c2)c1 | fluorescence | 1260 nM |
| Nc1ccc(-c2ccc(F)cc2)cc1NC(=O)C1CCOCC1 |  | > 33300 nM |
| CC(C)c1ccc(OS(=O)(=O)Oc2cncc(C(=O)NO)c2)cc1 | fluorescence | 894 nM |
| CCCCCCCCCCCCCCN(O)C(=O)CCCCC[C@@H]1NC(=O)[C@H]([C@@H](C)CC)NC(=O)[C@H](Cc2ccccc2C(F)(F)F)NC(=O)CCSCc2cccc(n2)CSCCCNC1=O | fluorogenic | > 30000 nM |
| O=C(CCc1ccc(CNC(C(=O)OC2CCCC2)C2CCCCC2)cn1)NO (stereo not shown) |  | 1120 nM |
| O=C(NO)c1cccc(OS(=O)(=O)Oc2cccc([N+](=O)[O-])c2)c1 | fluorescence | 34 nM |
| CN(Cc1ccc(/C=C/C(=O)NO)cc1)CC12CC3CC(CC(C3)C1)C2 |  | > 15000 nM |

A few entries again:
| SMILES | technique | IC50 |
| --- | --- | --- |
| Cc1cc(C(C)(C)C)ccc1OS(=O)(=O)Oc1cccc(/C=C/C(=O)NO)c1 | fluorescence | 6610 nM |
| O=C(NO)c1cc(F)cc(OS(=O)(=O)Oc2ccc3ccccc3c2)c1 | fluorescence | 1260 nM |
| Cc1c(COc2cc(OCc3cccc(C#N)c3)c(CN3CCCC[C@@H]3C(=O)O)cc2Cl)cccc1-c1cccc(OCCCCCCC(=O)NO)c1 |  | > 1000 nM |
